Assay results from different studies.
Compare with care: the assays were run in different laboratories. Several values in a cell are separate wells, animals, samples, runs or records. ± gives the spread as reported.

Compound = CNC(=O)c1ccccc1Sc1ccc2c(N)n[nH]c2c1; cell line = Ba/F3 TEL-VEGFR1; assay = cell growth, CCK-8; measurement = GI50; value = 1.3 µM
Compound = CCN1CCN(Cc2ccc(NC(=O)c3ccc(C)c(-c4ccc5nc(NC(=O)C6CC6)cn5n4)c3)cc2C(F)(F)F)CC1; cell line = MHHCALL4 cells; assay = Western blot, refers to: JAK2, STAT5, STAT3; setting = concentration not given; measurement = phosphorylation; value = inhibited
Compound = COc1ccc2c(c1)c(CC(=O)O)c(C)n2C(=O)c1ccc(Cl)cc1; cell line = Swiss 3T3; assay = inhibitor, radioimmunoassay; setting = 1 µM, added: mastoparan 20 µM; measurement = PGE2 release; value = inhibited
Compound = Cc1cccc(-c2[nH]c(CNc3ccccc3F)nc2-c2ccc3ncnn3c2)n1; cell line = bone marrow CD138+ myeloma cells; assay = XTT; setting = 3 µM, phenol red-free RPMI; measurement = viability; value = 6%
Compound = CCn1cc(-c2cc(Cn3ccoc3=N)cc3c2CCN([C@@H](C)c2cc(OC)ccn2)C3=O)c(C(F)(F)F)n1; cell line = SH-10-TC; assay = cell growth, inhibitor; setting = 120 h; measurement = EC50; value = 8.1 µM
Compound = CC[C@H]1CN2CCc3cc(OC)c(OC)cc3[C@@H]2C[C@@H]1C[C@H]1NCCc2cc(OC)c(OC)cc21; cell line = BT-16; assay = cell viability, MTT; setting = 10 µM, 72 h; measurement = inhibition; value = 92.9%
Compound = O=C(/C=C/C=C/C=C/C1CCCCC1)NC1=C[C@@](O)(/C=C/C=C/C=C/C(=O)NC2=C(O)CCC2=O)[C@@H]2O[C@@H]2C1=O; cell line = TE-15; assay = cell growth, CellTiter-Glo; setting = 78 h; measurement = GI50; value = 12.5 µM
Compound = Cc1nc(NC(=O)N2CCC[C@H]2C(N)=O)sc1-c1ccnc(C(C)(C)C(F)(F)F)c1; cell line = CAL-51; assay = cell growth, CellTiter-Glo; setting = 120 h; measurement = Hill coefficient GR curve; value = 1.19
Compound = Nc1ncnc2c1ncn2[C@@H]1O[C@H](CO)[C@@H](O)[C@H]1O; cell line = activated human T cells; assay = refers to: ATP; setting = 50 µM; scale = reference: DMSO; measurement = log2 fold change; value = 1.6 and 1.2 and 2.2
Compound = COC[C@H](NC(=O)c1cnc(C)s1)C(=O)N[C@@H](COC)C(=O)N[C@@H](Cc1ccccc1)C(=O)[C@@]1(C)CO1; cell line = BT-16; assay = cell viability, MTT; setting = 10 µM, 72 h; measurement = inhibition; value = 93.6%
Compound = CCCCN1C[C@H](O)[C@@H](O)[C@@H](O)[C@H]1CO; cell line = sample J patient fibroblasts; assay = GlcCer level lowering, LC-MS/MS, refers to: GlcCer d18:1/16:0; setting = 216 h; measurement = IC50; value = 34.5 µM
Compound = COc1cnc2cccc(N3CCc4c(cc(Cn5ccnc5C)cc4-c4cn(C)nc4C(F)(F)F)C3=O)c2c1; cell line = PA-1; assay = cell growth, inhibitor; setting = 120 h; measurement = EC50; value = 0.104 µM
Compound = Cn1cc(-c2ccc(-c3cncc(Cl)c3N3CCC4(CCNC4=O)CC3)cc2)cn1; cell line = COLO 205; assay = gene expression, microarray, refers to: CDKN1A mRNA; setting = concentration not given, 2 h; scale = reference: untreated cells; measurement = log2 fold change; value = 1.51
Compound = CCc1cnc(N2CCC(c3nc(COc4ccc(-n5cnnn5)cc4)cs3)CC2)nc1; cell line = HEK-293T; assay = RNA-seq GSEA, refers to: HALLMARK_PROTEIN_SECRETION; setting = concentration not given; scale = direction not given; measurement = normalized enrichment score; value = 1.22
Compound = Cc1[nH]c2ccccc2c1CCNCc1ccc(/C=C/C(=O)NO)cc1; cell line = C13; assay = annexin V/PI flow cytometry; setting = concentration not given, 48 h; scale = reference: control subtracted; measurement = early apoptotic cells; value = 6.7 ± 2%
Compound = CCC1=C[C@@H]2CN(C1)Cc1c([nH]c3ccccc13)[C@@](C(=O)OC)(c1cc3c(cc1OC)N(C)[C@H]1[C@@](O)(C(=O)OC)[C@H](OC(C)=O)[C@]4(CC)C=CCN5CC[C@]31[C@@H]54)C2; cell line = BT-16; assay = cell viability, MTT; setting = 10 µM, 72 h; measurement = inhibition; value = 91.1%
Compound = Cc1cc(N2CCc3c(c(C)nn3CC34CCC(NC(=O)[C@@H]5COCCN5)(CC3)CC4)C2)c2cnn(C)c2n1; cell line = human PBMC; assay = qRT-PCR, refers to: IFI6 mRNA; setting = 100 nM, added: ssRNA; measurement = inhibition; value = 96%
Compound = Cc1cc(Nc2ncc(Cl)c(Nc3ccccc3S(=O)(=O)C(C)C)n2)c(OC(C)C)cc1C1CCNCC1; cell line = CLB-BAR; assay = phosphoproteomics LC-MS/MS, refers to: EIF4B phosphorylation; setting = 200 nM, 60 min; scale = reference: untreated; measurement = log2 fold change; value = -1.63
Compound = CCCCCCCCc1ccc(CCC(N)(CO)CO)cc1; cell line = BT-16; assay = cell viability, MTT; setting = 10 µM, 72 h; measurement = inhibition; value = 93.7%
Compound = CSc1cc(Oc2ccnc3[nH]c(=O)cnc23)ccc1NC(=O)Nc1cc(C(C)(C)C)nn1-c1ccccc1; cell line = patient-derived cell line clone B; assay = RPPA, refers to: phosphorylated SAPK/JNK; system = human; setting = 1 µM, 4 h; scale = reference: DMSO; measurement = phospho ratio; value = 0.6
